# Assay results of several laboratories.
# Parts stem from different laboratories: compare values within a part only. Substitutions count along the parent as printed.
# Sequence of UniProt Q9P2K8 (whole entry, looked up): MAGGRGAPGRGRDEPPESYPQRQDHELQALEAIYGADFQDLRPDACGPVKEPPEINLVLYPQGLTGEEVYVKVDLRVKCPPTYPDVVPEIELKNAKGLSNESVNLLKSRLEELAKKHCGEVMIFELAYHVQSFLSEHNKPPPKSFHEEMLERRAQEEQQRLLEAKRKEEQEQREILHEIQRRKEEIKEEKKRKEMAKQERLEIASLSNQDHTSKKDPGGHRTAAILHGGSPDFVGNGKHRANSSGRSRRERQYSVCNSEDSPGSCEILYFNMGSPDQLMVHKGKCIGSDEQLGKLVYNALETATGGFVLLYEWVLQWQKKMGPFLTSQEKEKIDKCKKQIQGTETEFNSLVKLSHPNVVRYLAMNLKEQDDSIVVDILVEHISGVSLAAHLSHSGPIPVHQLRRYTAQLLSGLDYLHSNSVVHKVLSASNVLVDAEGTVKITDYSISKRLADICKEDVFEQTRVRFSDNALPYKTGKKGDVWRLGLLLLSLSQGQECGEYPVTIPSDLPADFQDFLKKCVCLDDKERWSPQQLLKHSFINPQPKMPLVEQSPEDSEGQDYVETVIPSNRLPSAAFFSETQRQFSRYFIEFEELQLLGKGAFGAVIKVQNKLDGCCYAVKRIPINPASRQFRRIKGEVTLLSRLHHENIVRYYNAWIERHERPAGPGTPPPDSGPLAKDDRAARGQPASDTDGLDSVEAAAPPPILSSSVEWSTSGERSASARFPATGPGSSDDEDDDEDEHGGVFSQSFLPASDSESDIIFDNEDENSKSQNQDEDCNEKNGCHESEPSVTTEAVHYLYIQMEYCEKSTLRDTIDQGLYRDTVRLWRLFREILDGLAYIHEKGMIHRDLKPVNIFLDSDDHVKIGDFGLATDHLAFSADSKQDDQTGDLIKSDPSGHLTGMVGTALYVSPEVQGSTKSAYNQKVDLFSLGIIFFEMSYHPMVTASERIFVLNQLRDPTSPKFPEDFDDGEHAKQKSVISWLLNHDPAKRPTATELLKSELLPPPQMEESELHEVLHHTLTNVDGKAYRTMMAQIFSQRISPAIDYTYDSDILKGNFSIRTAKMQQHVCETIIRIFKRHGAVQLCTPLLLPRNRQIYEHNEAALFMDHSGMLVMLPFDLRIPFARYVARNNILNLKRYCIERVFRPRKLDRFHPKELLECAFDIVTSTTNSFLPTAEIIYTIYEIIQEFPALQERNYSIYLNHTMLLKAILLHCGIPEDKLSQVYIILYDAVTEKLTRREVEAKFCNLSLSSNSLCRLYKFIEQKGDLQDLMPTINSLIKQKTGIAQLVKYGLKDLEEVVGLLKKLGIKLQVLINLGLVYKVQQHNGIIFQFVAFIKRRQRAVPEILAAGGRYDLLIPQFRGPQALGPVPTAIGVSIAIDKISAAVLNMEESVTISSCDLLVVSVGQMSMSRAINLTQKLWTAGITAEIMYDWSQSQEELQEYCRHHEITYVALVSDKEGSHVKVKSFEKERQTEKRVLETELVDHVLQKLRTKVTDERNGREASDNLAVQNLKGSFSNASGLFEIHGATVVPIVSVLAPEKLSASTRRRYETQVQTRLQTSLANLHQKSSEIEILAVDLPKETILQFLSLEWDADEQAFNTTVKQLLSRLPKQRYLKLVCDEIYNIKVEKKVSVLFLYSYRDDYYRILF

# Sample 1
# Target: CCND2, cyclin fold, Cln2 fusion (human)
# Method: yeast growth competition, sequencing
# Matrix: yeast
# Notes: weak parent motif
# Relative to: not given
# Direction: higher = stronger binding
# Parent: viral docking peptide; TSVRRALFTGGSD; partner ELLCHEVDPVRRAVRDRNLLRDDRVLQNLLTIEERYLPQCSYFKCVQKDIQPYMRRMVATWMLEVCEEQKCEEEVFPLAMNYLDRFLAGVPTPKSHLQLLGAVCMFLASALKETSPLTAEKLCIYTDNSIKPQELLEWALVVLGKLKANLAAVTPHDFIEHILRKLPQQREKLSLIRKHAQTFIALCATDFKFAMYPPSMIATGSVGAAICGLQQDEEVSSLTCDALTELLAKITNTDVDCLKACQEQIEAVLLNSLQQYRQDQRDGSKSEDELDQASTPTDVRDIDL
Change,normalised enrichment score
TSVRRILFTGGSD [A6I],0.335
TSVRRALFTHGSD [G10H],-0.17
TSVRRALFTGVSD [G11V],0.283
TSVRPALFTGGSD [R5P],-0.0729
TSVRRALPTGGSD [F8P],0.0708
TSVRRVLFTGGSD [A6V],0.132
TSVKRALFTGGSD [R4K],-0.031
TSVRRALGTGGSD [F8G],0.0802

# Sample 2
# Target: UDP-N-acetylglucosamine--peptide N-acetylglucosaminyltransferase 110 kDa subunit (OGT, Homo sapiens, UniProt O15294)
# Sequence of UniProt O15294 (whole entry, looked up): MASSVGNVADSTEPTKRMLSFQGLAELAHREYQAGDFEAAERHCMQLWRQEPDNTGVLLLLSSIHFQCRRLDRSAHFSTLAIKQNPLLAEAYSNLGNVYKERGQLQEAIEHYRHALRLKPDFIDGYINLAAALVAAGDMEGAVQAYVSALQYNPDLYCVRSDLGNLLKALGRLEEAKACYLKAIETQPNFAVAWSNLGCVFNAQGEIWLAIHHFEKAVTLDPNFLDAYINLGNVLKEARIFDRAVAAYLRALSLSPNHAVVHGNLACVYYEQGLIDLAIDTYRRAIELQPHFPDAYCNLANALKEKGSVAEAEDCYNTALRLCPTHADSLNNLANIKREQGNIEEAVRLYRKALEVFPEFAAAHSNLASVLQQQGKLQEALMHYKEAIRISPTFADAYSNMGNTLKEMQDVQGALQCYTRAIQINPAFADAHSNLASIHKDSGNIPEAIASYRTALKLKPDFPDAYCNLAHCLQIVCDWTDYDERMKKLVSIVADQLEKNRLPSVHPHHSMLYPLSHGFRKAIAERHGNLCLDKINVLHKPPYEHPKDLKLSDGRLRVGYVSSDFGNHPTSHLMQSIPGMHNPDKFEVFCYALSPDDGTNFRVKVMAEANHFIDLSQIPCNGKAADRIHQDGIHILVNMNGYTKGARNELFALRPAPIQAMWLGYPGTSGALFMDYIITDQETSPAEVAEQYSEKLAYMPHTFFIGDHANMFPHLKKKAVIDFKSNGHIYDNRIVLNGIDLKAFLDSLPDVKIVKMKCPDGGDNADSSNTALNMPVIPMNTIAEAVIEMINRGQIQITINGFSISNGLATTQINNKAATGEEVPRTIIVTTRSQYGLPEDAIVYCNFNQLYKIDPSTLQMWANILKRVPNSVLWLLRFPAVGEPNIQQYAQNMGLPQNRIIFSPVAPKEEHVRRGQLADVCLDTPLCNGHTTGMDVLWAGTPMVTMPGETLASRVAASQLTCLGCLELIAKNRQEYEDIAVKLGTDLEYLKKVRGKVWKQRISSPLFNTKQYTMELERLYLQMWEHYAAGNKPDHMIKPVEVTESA
# Effect on: binding
# Method: phage display NGS
# Molecule type: peptide
# Tested at: concentration not given
# Notes: panning round 2
# Relative to: input library
Molecule,enrichment fold change
IHAGLEPKYQISYTY,101
LPIPKFLPIYQLKLE,6.66
HWRPHHHMGEEINV,5.19
MHHAFEGDHVWMHAG,4.14

# Sample 3
# Target: tungstate, free oxyanion
# Method: microfluidic competitive inhibition
# Matrix: in vitro, cell-free expressed
# Tested at: not given
# Notes: derived from inhibition constants, unchanged parent 2230 nM
# Direction: lower = stronger binding
# Parent: PafA, mature enzyme, eGFP fusion (Elizabethkingia meningoseptica, UniProt Q9KJX5); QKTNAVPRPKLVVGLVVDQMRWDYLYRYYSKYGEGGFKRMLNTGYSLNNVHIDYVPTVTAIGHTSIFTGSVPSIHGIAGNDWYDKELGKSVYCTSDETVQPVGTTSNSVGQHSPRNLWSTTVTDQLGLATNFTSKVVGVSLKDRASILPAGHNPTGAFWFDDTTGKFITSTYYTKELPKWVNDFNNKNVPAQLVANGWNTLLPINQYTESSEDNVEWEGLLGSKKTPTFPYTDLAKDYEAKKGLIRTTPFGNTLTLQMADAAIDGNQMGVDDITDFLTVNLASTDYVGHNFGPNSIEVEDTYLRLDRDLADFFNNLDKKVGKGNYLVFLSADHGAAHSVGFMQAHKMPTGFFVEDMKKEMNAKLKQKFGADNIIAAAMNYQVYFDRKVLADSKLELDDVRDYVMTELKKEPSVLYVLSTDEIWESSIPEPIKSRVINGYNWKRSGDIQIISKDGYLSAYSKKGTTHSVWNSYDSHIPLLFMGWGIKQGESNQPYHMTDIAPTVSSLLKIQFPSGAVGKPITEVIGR
Change,oxyanion analog dissociation constant
Y231G,557 nM
T3G,2.22 µM
A235V,2.09 µM
Y29G,2.24 µM
N214V,2.63 µM
T284G,2.15 µM
S106G,1.94 µM
A195V,2.29 µM

# Other studies, line by line
Structure (SMILES),target,effect on,mode,endpoint,result
COC(=O)c1cc(N(C)C(=O)c2ccn3ncc(-c4ccc(C(=O)O)cc4)c3c2)ccc1Cl,"eIF-2-alpha kinase GCN2 (EIF2AK4, Homo sapiens, UniProt Q9P2K8)",enzyme activity,inhibitor,IC50,> 30 µM

# For quick reference, copied from above (sample 2):
Molecule,enrichment fold change
IHAGLEPKYQISYTY,101
HWRPHHHMGEEINV,5.19
